Measured values pooled from the literature.
Each line is one published result; not all experiments were run side by side. Several values in a cell are separate wells, animals, samples, runs or records. ± marks the error that the study gave.

SMILES = O=C(N/N=C/c1cc[n+](Cc2ccccc2)c2ccccc12)N/N=C/c1cc[n+](Cc2ccccc2)c2ccccc12; target or system = hp2 hairpin duplex DNA; assay = FRET melting; setting = 1 µM; quantity = ΔTm; value = 1.9 ± 0.6 °C
SMILES = Cc1ncsc1-c1ccc(C(C)NC(=O)C2CC(O)CN2C(=O)C(NC(=O)CCCCCCCCCCN2CCCC(Nc3ncc(Cl)c(Nc4ccccc4S(=O)(=O)C(C)C)n3)C2)C(C)(C)C)cc1 (stereo not drawn); target or system = 22Rv1; assay = RNA-seq, item: ZNF730 mRNA; setting = concentration not given; scale = baseline: DMSO; quantity = log2 fold change; value = -1.98
SMILES = COc1ccc(C([O-])=CC(=O)c2ccc(C(C)(C)C)cc2)cc1.[Ru+2].c1ccc(-c2cccc(-c3ccccn3)n2)nc1.c1cnccn1; target or system = HL-60; scale = baseline: dark IC50 over light IC50; quantity = phototoxicity index; value = 5
SMILES = CN(C)c1ccc(-n2cc(COC(=O)[C@@]3(C)C=C(C(=O)OC(C)(C)C)C(=O)CC3)nn2)cc1; target or system = AP-1 reporter HEK293; assay = AP-1 reporter gene, luciferase reporter; setting = 3 µM, 6 h, together with: PMA 6 ng/mL; scale = higher = more transcription; quantity = luminescence; value = 7240 a.u.
SMILES = CCN(CC)CC(=O)Nc1cccc(-n2cc(-c3ccc4ccc(-c5cn(-c6cccc(NC(=O)CN(CC)CC)c6)nn5)cc4c3)nn2)c1; target or system = RCC4; assay = PCR angiogenesis array, item: ITGAV; setting = 5 x IC50, 2 h, normoxia; scale = baseline: untreated; quantity = fold regulation; value = 1.17
SMILES = CCN(C(=O)c1cc(F)ccc1Oc1nncnc1N1CCC2(C1)CN([C@H](CCCN(C)CCOC)C(C)C)C2)C(C)C; target or system = Ramos; assay = cell growth or viability; setting = 72 h; quantity = GI50; value = > 10 µM
SMILES = NCC(=O)Nc1ccc(Sc2ccc3c(/C=C/c4ccccn4)n[nH]c3c2)cc1; target or system = Ba/F3 TEL-VEGFR1; assay = cell growth, CCK-8; quantity = GI50; value = 2.29 µM
SMILES = CC(C)c1ccc(N(C)c2ccc3c(c2)OCC[C@H]3CNc2cnccc2C(=O)O)cc1; target or system = T.T; assay = cell growth, CellTiter-Glo; setting = 7 days; quantity = IC50; value = 0.00675 µM
SMILES = C[n+]1ccc(/C=N/NC(=O)c2cncc(C(=O)N/N=C/c3cc[n+](C)cc3)n2)cc1; target or system = hp2 hairpin duplex DNA; assay = FRET melting; setting = 1 µM; quantity = ΔTm; value = -0.3 °C
SMILES = COc1cccc(OC)c1-c1cc(C(=O)NC2(C(=O)O)C3CC4CC(C3)CC2C4)nn1-c1ccc(C(=O)NCCNC(=O)[C@H](CCCCNC(=O)[C@H](CC(C)C)NC(=O)C2OC2C(=O)O)NC(=O)CN2CCN(CC(=O)[O-])CCN(CC(=O)[O-])CCN(CC(=O)[O-])CC2)cc1C(C)C.[177Lu+3] (mixture of isomers); target or system = HT-29; setting = 240 min, 4 h; scale = baseline: added activity; quantity = internalized fraction; value = 2.08 ± 0.11%
SMILES = C=CC(=O)N1CCCC(n2c(=O)c3ncccc3n(Cc3ccc(Oc4ccccc4)cc3)c2=O)C1 (stereo not drawn); target or system = OCI-Ly3; assay = cell growth or viability, MTT; setting = 72 h; quantity = IC50; value = 10 µM
SMILES = CCCCCCCCCCCC(=O)N[C@H](CO)C[C@@H](O)c1ccccc1; target or system = HeLa; assay = CERT activity, HPLC-MS/MS lipidomics, item: ceramide 24; setting = 1 µM, 24 h, not cell-number normalised; quantity = ceramide level; value = 28300 pmol/sample and 22300 pmol/sample and 25600 pmol/sample
SMILES = CN(C)Cc1nc(Nc2ccc(-c3cnc4cc(F)ccn34)c3c2C(=O)NC3)ccc1C1CCOC1 (stereo not drawn); target or system = mouse BMDC; assay = flow cytometry; setting = 10 µM; quantity = CD86-positive cells; value = 80%
SMILES = C=C1CC2(C(=O)OC)C=C(C(=O)OC(C)(C)C)C(=O)C1C2 (stereo not drawn); target or system = AP-1 reporter HEK293; assay = AP-1 reporter gene, luciferase reporter; setting = 1 µM, 6 h, together with: PMA 6 ng/mL; scale = higher = more transcription; quantity = luminescence; value = 9190 a.u.
SMILES = [Cl-].[Cl-].[Ru+2].c1ccc(-c2ccccn2)nc1.c1ccc(-c2ccccn2)nc1.c1ccc2cc3nc4c5cccnc5c5ncccc5c4nc3cc2c1; target or system = SK-MEL-28; assay = cell growth, SRB; setting = red light 633 nm, 1% O2 hypoxia; quantity = GI50; value = 4.2 µM
SMILES = COCCn1cc(COc2cccc(Cc3cnc(NC(=O)CSc4nc(C)cc(C)n4)s3)c2)nn1; target or system = PC-3M-luc; assay = colony formation, colony forming; setting = 1 µM; quantity = inhibition; value = 13.5 ± 10.8%
SMILES = COC(=O)c1cc(NC2=NC(=O)C(=Cc3ccc(N(C)C)cc3)S2)ccc1OC(C)=O; target or system = MCF7; assay = GC-MS, item: Citric acid; setting = 1 µM; scale = baseline: DMSO; quantity = metabolite level; value = -0.21 fold change
SMILES = CC(=O)OC[C@H]1O[C@@H](n2cc(CSc3nc4ccccc4n3Cc3cn([C@@H]4O[C@H](COC(C)=O)[C@@H](OC(C)=O)C(OC(C)=O)[C@H]4OC(C)=O)nn3)nn2)[C@H](OC(C)=O)C(OC(C)=O)[C@@H]1OC(C)=O (stereo in doubt); target or system = Caco-2; assay = MTT; setting = 125 ppm; quantity = cytotoxicity; value = 89.8%
SMILES = Cc1ccncc1.[Cl-].[Cl-].[Ru+2].c1cc(-c2ccc3cccnc3n2)nc(-c2ccc3cccnc3n2)c1.c1ccc2cc3nc4c5cccnc5c5ncccc5c4nc3cc2c1; target or system = A-375; assay = resazurin; setting = together with: light 733 nm, 100 J/cm2; scale = baseline: dark EC50 over light EC50; quantity = phototoxicity index; value = 29
SMILES = C=CC(=O)N1[C@@H](c2ccc3c(c2)OCO3)c2[nH]c3ccccc3c2C[C@H]1C(=O)NC1CC1; target or system = rat DRG neurons; setting = 0.004572 µM, 48 h, together with: vincristine 40 nM; quantity = neuron degeneration; value = 89.8% and 85.8%
SMILES = CN1CCCNC(=O)c2cccc(c2)C(=O)NCCCN(C)CCCNc2cccc3c2C(=O)c2cccc(c2C3=O)NCCC1; target or system = SAS; assay = RNA-Seq, item: PNN mRNA; setting = 5 µM, 6 h; scale = baseline: untreated cells; quantity = log2 fold change; value = -2.06
SMILES = Cn1ncc2cc(-c3cncc(Cl)c3N3CCC4(CCNC4=O)CC3)ccc21; target or system = LS174T; assay = gene expression, microarray, item: TIPARP mRNA; setting = concentration not given, 24 h; scale = baseline: untreated cells; quantity = log2 fold change; value = -2.57
SMILES = Cc1[nH][n+]([Pd-2]([Cl])([Cl])[n+]2[nH]c(C)c(CSCc3ccccc3)c2C)c(C)c1CSCc1ccccc1; target or system = U-937; assay = cytotoxicity; scale = baseline: IC50 HEK293 over IC50 U-937; quantity = selectivity index; value = 1.5
SMILES = CC(C)C[C@@H]1NC(=O)[C@H](CC(C)C)NC(=O)[C@H](Cc2c[nH]c3ccccc23)NC(=O)[C@H](CO)NC(=O)[C@H](Cc2c[nH]c3ccccc23)NC(=O)[C@@H]2CCCN2C(=O)[C@H](CC(C)C)NC(=O)[C@H](Cc2c[nH]cn2)NC(=O)[C@@H]2CCCN2C(=O)[C@H](CC(N)=O)NC(=O)[C@H](C)NC(=O)[C@H](Cc2ccc(O)cc2)NC(=O)[C@H](CS)NC(=O)[C@H](CCCCNC(=O)CN2CCN(CC(=O)O)CCN(CC(=O)O)CCN(CC(=O)O)CC2)NC1=O [lutetium-177 labelled]; target or system = 4T1; assay = flow cytometry; setting = 0.4 Bq/cell, 24 h; quantity = live cells; value = 75.8%
SMILES = Cc1nc2c(F)cc(-c3nc(Nc4ccc(CNC(=O)CCCCCC(=O)NO)cc4)ncc3F)cc2n1C(C)C; target or system = 4T1; assay = cell growth or viability, CCK-8; setting = 0.3 µM, 48 h; quantity = inhibition; value = 57.2%
SMILES = O=C1CC[C@H](N2Cc3cc(-c4ccn5ncc(Cl)c5n4)ccc3C2=O)C(=O)N1; target or system = MOLM-13; assay = mRNA level, RNA-seq, item: PHGDH; setting = 200 nM, 24 h; scale = baseline: DMSO; quantity = log2 fold change; value = -4.53
SMILES = CCOc1cncc(-c2ccc(NC(=O)C3(c4ccnc(NS(=O)(=O)C5CC5)n4)CCOCC3)nc2)n1; target or system = SU-DHL-1; assay = cell growth or viability, ATP luminescence; setting = 72 h; quantity = IC50; value = 0.042 µM
SMILES = COc1ccc(NC(=O)c2ccc3[nH]c(-c4ccc(N(C)C)cc4)nc3c2)cn1; target or system = HCEC-hTERT; assay = IncuCyte; setting = concentration not given, 6 h; quantity = dead cell to confluence ratio; value = 2.39 and 4.02 and 14.2
SMILES = COC(=O)[C@@]1(C)C=C(C(=O)Nc2cccc(C(=O)Nc3ccc(Nc4nccc(-c5cccnc5)n4)c(C)c3)c2)C(=O)CC1; target or system = AP1 reporter HEK293; assay = AP1 reporter gene, inhibitor; setting = 10 µM, 6 h, compound washed out, unit not given, together with: PMA; scale = baseline: PMA alone; quantity = reporter activity; value = 0.119
SMILES = CNS(=O)(=O)Nc1nccc(Cc2c(C)c3ccc(Oc4ncccc4F)cc3oc2=O)c1F; target or system = HEL 92.1.7; assay = cell viability, CellTiter-Glo; setting = 7 days; quantity = IC50; value = > 1 µM
SMILES = CC(C)(C)c1cc(-c2ccc3cccnc3n2)nc(-c2ccc3cccnc3n2)c1.[Cl-].[Cl-].[Ru+2].c1ccc2cc3nc4c5cccnc5c5ncccc5c4nc3cc2c1; target or system = A-375; setting = visible light 100 J/cm2; scale = baseline: dark EC50 over light EC50; quantity = phototherapeutic index; value = 7
SMILES = COc1ccccc1-c1ccncc1C(=O)Nc1nnc(OCc2ccc(Cl)cc2)s1; target or system = MDA-MB-231 BRCA1 wild-type; setting = 0.75 µM; scale = baseline: vehicle control; quantity = colony survival; value = 87% and 101%
SMILES = Cc1cc(Cl)cc(-c2ccnc3cc(CN4C(=O)C5C(C4=O)C5(C)C)sc23)c1C[C@@H]1CNCCO1 (stereo partly drawn); target or system = CHP-212 resistant; assay = PI staining flow cytometry; setting = 1 µM, 24 h; quantity = cells in S phase; value = 10.1% and 13% and 9.84%
SMILES = COC1=C2CC(C)CC(OC)C(O)C(C)C=C(C)C(OC(N)=O)C(OC)C=CC=C(C)C(=O)NC(=CC1=O)C2=O (stereo not drawn); target or system = Rh30; assay = ChIP-seq, item: H3K36me3 peak; setting = concentration not given, promoter-TSS chr5:179011400-179051999; scale = baseline: untreated control; quantity = log fold change; value = -0.511
SMILES = CO[C@@H]1[C@@H](OC(N)=O)[C@@H](O)[C@H](Oc2ccc3c(O)c(NC(=O)c4ccc(O)c(CC=C(C)C)c4)c(=O)oc3c2C)OC1(C)C; target or system = DLD-1 parental; setting = 150 µM, replicate 1; quantity = colony count; value = 0.1
SMILES = CC(C)(C)c1cc(-c2ccc3cc4ccccc4nc3n2)nc(-c2ccc3cc4ccccc4nc3n2)c1.[Cl-].[Cl-].[Ru+2].c1ccc2cc3nc4c5cccnc5c5ncccc5c4nc3cc2c1; target or system = A-375; assay = resazurin; setting = together with: light 633 nm, 20 mW, 100 J/cm2; quantity = EC50; value = 24.3 µM

Excerpt of the above:
SMILES = COC(=O)[C@@]1(C)C=C(C(=O)Nc2cccc(C(=O)Nc3ccc(Nc4nccc(-c5cccnc5)n4)c(C)c3)c2)C(=O)CC1; target or system = AP1 reporter HEK293; assay = AP1 reporter gene, inhibitor; setting = 10 µM, 6 h, compound washed out, unit not given, together with: PMA; scale = baseline: PMA alone; quantity = reporter activity; value = 0.119
SMILES = CCCCCCCCCCCC(=O)N[C@H](CO)C[C@@H](O)c1ccccc1; target or system = HeLa; assay = CERT activity, HPLC-MS/MS lipidomics, item: ceramide 24; setting = 1 µM, 24 h, not cell-number normalised; quantity = ceramide level; value = 28300 pmol/sample and 22300 pmol/sample and 25600 pmol/sample
SMILES = COC1=C2CC(C)CC(OC)C(O)C(C)C=C(C)C(OC(N)=O)C(OC)C=CC=C(C)C(=O)NC(=CC1=O)C2=O (stereo not drawn); target or system = Rh30; assay = ChIP-seq, item: H3K36me3 peak; setting = concentration not given, promoter-TSS chr5:179011400-179051999; scale = baseline: untreated control; quantity = log fold change; value = -0.511
SMILES = CN1CCCNC(=O)c2cccc(c2)C(=O)NCCCN(C)CCCNc2cccc3c2C(=O)c2cccc(c2C3=O)NCCC1; target or system = SAS; assay = RNA-Seq, item: PNN mRNA; setting = 5 µM, 6 h; scale = baseline: untreated cells; quantity = log2 fold change; value = -2.06
SMILES = CCN(CC)CC(=O)Nc1cccc(-n2cc(-c3ccc4ccc(-c5cn(-c6cccc(NC(=O)CN(CC)CC)c6)nn5)cc4c3)nn2)c1; target or system = RCC4; assay = PCR angiogenesis array, item: ITGAV; setting = 5 x IC50, 2 h, normoxia; scale = baseline: untreated; quantity = fold regulation; value = 1.17
